Measurements collected from several papers.
A part holds a random share of what one study measured. Positions count from the first letter of the parent shown.

Block 1
Target: Histone acetyltransferase KAT6A, winged helix 2, GST fusion (KAT6A, Homo sapiens, UniProt Q92794, residues 85-181)
Technique: protein binding microarray
Form: double-stranded DNA, one strand shown
Matrix: in vitro
Tested at: not given
Setting: 8-mer, flanks averaged, mean of 2 arrays, mostly near background
Reference: not given
Reading: higher = stronger binding
Quantity: E-score
Residues (chain): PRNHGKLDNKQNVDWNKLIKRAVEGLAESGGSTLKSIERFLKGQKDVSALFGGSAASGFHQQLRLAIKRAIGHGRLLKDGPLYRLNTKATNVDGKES
GCAAAGAC: 0.0371
CGGCGTCA: 0.0796
GCTCTTGA: -0.00723
CACGTCGA: -0.125
ATTTTTTG: 0.0627
GTCGGCAC: 0.0825
CGTTCTTA: 0.0525
AGGCACTC: -0.0423
CCGCTACG: 0.0517
ACACCGCG: 0.103
AATTCTGC: 0.14
ATGTCATC: -0.179
TACTGTCA: -0.209
ACCACTTC: -0.114
TGTCATAA: -0.119
CAAGCACA: 0.0957
GACGTGGA: -0.134
CGGATACG: -0.059
AGAACTAC: -0.042
CTACGGTA: -0.236
ATTAACCA: -0.14
ACTTCGAA: -0.0539
GCTTCTCA: 0.0271
GCCGGTTA: 0.17
AGCGTCAT: -0.0464

Block 2
Target: Ras GTPase-activating protein-binding protein 1, full length (G3BP1, Homo sapiens, UniProt Q13283)
Sequence of UniProt Q13283 (whole entry, looked up): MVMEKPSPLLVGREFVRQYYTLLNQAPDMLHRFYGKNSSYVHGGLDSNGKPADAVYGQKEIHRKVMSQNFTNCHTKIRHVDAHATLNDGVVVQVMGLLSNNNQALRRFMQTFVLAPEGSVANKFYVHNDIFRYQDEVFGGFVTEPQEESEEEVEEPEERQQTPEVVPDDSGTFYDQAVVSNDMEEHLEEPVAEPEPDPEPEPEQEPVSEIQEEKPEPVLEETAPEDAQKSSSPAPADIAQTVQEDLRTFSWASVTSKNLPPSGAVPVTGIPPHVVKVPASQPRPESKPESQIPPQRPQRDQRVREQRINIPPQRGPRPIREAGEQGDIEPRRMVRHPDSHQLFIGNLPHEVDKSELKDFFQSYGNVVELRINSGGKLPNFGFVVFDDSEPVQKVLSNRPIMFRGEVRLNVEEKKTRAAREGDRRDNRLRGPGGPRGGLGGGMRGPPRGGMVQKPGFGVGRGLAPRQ
Technique: RNA Bind-n-Seq
Form: RNA
Matrix: in vitro
Tested at: 200 nM
Setting: whole 134-nt RNA, ends assumed
Together with: 150 mM KCl
Reference: input library
Reading: higher = stronger binding
Quantity: log2 enrichment
Shared flanks, not repeated: GGGAGUUCUACAGUCCGACGAUC … UGGAAUUCUCGGGUGUCAAGG
CCUCAAGUCCUGUGCUACACAUCGUAUGUACCGAAUCGGUUUGGAAAGGAGGAAAGUAUUAUGUUACGCCGUUCGGAUCUGCACUUCCAG: 0.0354
CACCGACAACACGCACCCACACAGACACAGAGGGAAGGGGUUGGGAUGGGGACAGGGUGCACAGCAGGGCGGGGUAGGACCCCAGCCCCU: 1.94
GCAGGAAGUAAAAACAAAUGGAAAUGCUUCGGAUAGUGGCAGGGGUGGGGGUUGCUAAGGAAAGGGUGGGAAGGGAGUGGGUAAAGAGUU: 0.814
AGUCCUGUGCUACACAUCGUAUGUACCGAAUCGGGGUUUGGGGAAAAAGGGGUGGGGAAAGUAUUAUGUUACGCCGUUCGGAUCUGCACU: 0.614
UGAAGACUAUGAGACUGCUCUAUCAGGAAAGGAAGCCCUUUCGGCUGCGCUGCGCUCACAAAACCUCACCAAGAGUACAGAGAACCACAG: 0.287
GUCCUGUGCUACACAUCGUAUGUACCGAAUCGGUUUUUUUGGAAAAAAAGGAAAAAGGAAAGUAUUAUGUUACGCCGUUCGGAUCUGCAC: -1.18
CCUCAAGUCCUGUGCUACACAUCGUAUGUACCGAAUCGGUUUUUGGAGGAGGAAAGUAUUAUGUUACGCCGUUCGGAUCUGCACUUCCAG: -0.012
UAACUUUAGAGGAGGAUCUGAUGGGUAUGGCAGUGGACGUGGAUUUGGGGAUGGCUAUAAUGGGUAUGGAGGAGGACCUGGAGGUGGCAA: 0.41
UAGCCAAGAGUCGAAGCUAAACCAGAAGUUCAAUCUCAGCCACCUCGUGUGCGUGAACAACGACCUAGAGAACGACCUGGUUUUCCUCCU: -0.329
GCAGGAAGUAUAAACAAAUGGAAAUGCUUCGGAUAGUGGCAGGGGUGGGGGUUGCUAAGGAAAGGGUGGGAUGGGAGUGGGUAAAGAGUU: 1.15
CAAGUCCUGUGCUACACAUCGUAUGUACCGAAUCGGGUUUUUGGGUUUGGGAGGGAAAGUAUUAUGUUACGCCGUUCGGAUCUGCACUUC: 0.403
UCAAGUCCUGUGCUACACAUCGUAUGUACCGAAUCGGUGGUUUUUGGUUUUUGGAAAGUAUUAUGUUACGCCGUUCGGAUCUGCACUUCC: -0.802
UGUGUCUUGCUGAAUCAGGGCUCUCUUAUCCCUGCCAUCGACUUACAGUGGGAAGAAGAUCUUCACCUGCACAGACCCGGGAACAGUCGG: -0.327
AGUCCUGUGCUACACAUCGUAUGUACCGAAUCGGGGAAAAAGGGAAAAAGGAAAAAGGAAAGUAUUAUGUUACGCCGUUCGGAUCUGCAC: -0.704

Block 3
Target: CCNA1, cyclin fold, Cln2 fusion (human)
Technique: yeast growth competition, sequencing
Matrix: yeast
Setting: weak parent motif
Reference: not given
Reading: higher = stronger binding
Quantity: normalised enrichment score
Parent: RBL1 docking peptide (human); GSAKRRLFGEDPP; partner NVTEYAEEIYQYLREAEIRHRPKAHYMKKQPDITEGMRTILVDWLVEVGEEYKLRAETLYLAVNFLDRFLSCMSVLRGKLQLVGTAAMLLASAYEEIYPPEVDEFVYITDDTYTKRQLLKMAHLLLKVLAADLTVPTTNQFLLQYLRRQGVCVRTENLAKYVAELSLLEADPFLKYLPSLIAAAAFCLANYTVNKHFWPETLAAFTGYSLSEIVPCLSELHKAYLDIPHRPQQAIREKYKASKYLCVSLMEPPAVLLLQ
GSAKRRLFGPDPP [E10P]: 0.583
GSAKRRRFGEDPP [L7R]: 0.0116
GSAKRRIFGEDPP [L7I]: 0.842
GSASRRLFGEDPP [K4S]: 0.151
GSAKRRFFGEDPP [L7F]: 0.389
GSAKRRYFGEDPP [L7Y]: 0.235
GSAKVRLFGEDPP [R5V]: 0.337
GSAKRRLFGDDPP [E10D]: 0.658
GSAKRRLFGEDCP [P12C]: 0.545
GSAKRRLFGEDPM [P13M]: 0.28
GSAKRRLFGECPP [D11C]: 0.577
GSAKRRLFGEAPP [D11A]: 0.59
GSAKRRMFGEDPP [L7M]: 0.382
GSAKRRLFGEDPN [P13N]: 0.63
QSAKRRLFGEDPP [G1Q]: 0.501

Single results of other studies
PhoQ, residues 284 288 289 292 302 303 SSTLLI — fold induction (PhoP, residues 12 14 15 18 19 NHFIF (Escherichia coli, UniProt P23836); Sort-seq, measured: YFP reporter; E. coli; PhoQ-PhoP variant library, together with: 10 µM Mg2+; reference: high Mg2+ state, higher = stronger signaling): 3.75
